Assay results from different studies.
Each numbered part is a random draw from the data of one study; scales do not carry over between parts.

Block 1 — method: RNA Bind-n-Seq; form: RNA; matrix: in vitro; concentration: not given; relative to: input RNA pool; reading: higher = stronger binding; measurement: bound/input enrichment
Target: RING finger protein unkempt homolog, zinc fingers 1-6, GST-SBP tag (UNK, Homo sapiens, UniProt Q9C0B0, residues 30-357)
Chain of UniProt Q9C0B0 (30-357, looked up): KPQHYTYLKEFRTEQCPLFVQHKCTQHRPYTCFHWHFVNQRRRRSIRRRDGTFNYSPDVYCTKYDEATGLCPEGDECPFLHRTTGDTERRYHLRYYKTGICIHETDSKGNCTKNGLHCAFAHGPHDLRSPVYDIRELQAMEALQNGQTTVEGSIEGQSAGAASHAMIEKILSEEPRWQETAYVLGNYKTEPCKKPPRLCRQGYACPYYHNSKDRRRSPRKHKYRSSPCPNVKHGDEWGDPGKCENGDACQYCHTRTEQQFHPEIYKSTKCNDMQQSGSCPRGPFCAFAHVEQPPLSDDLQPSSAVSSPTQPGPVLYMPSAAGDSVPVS
Notes: RNA with constant flanks, human-mouse chimeric sites, ends assumed
Constant ends, left off below: GGGAGUUCUACAGUCCGACGAUC … CAACAGAGGAUUGAGCAUCA
AGAUUCCCCCUCCUGAGACCUCCUCCGAAGUUGGAGUCUCUUACAGAUGCCUCAUCCCCUGUUAGUAUUUUAGUUUGGACCACACAACCUUGGACAAUUCCCGCCAACCAGGCAAUUUGC: 3.14 ratio
UUACCCGAGAACGAGGAUGAGCUGGAGAGCACCAACAGACGCUAUACCAAGAGAGACUGCAGCACUUUCCUCAGAACUAGUGAGACGGGCAUCGUGGACCAGGUCAUGGUCACUCUCAAC: 0.184 ratio
AAUUUCCGCAACUGUUUUUUAGACAUUCACAUCAGACUUACAGAGCACCUGGCCACAUUCUAGGUUUGUGUUAUUUCUCAGCUAUGGGGGUAUGAUUAUGAGAACACUGCUUAACUAAUG: 0.917 ratio
GGGUGGGUGGUCAUUGCCGUUUGAGCUGCUGAUUUUCAUGAGUCGCCUUCAAAACUCUCGUGUAGGGUUGACAAUGUGGGGGGGUGGGGGAUCCAGCUAUUUUUUUUAUUUUCAAGUCCA: 1.62 ratio
GCUCCUCCCCGCUCUGCAGCCUGGGGACACUGGGCUGGGACCAGAAUCUUAUUUUUUUUUAAUAGUGUCAGUGUAACUGUAUCCCGUGACAUUUCAUUUUUUUUAAAUAGUGUAUUUUUU: 29.6 ratio
GUCAACAGUUGUCUCAACCCCAUCCUCUACGCCUUCCUGGAUGAGAACUUCAAGGCCUGCUUUAGAAAGUUCUGCUGUGCAUCUGCCCUGCGCCGGGACGUGCAGGUGUCUGACCGCGUG: 0.447 ratio
ACACAAUAUGAGACCAACAGCAUGGACUUCAAAGUCGGGGCAGAUGGGACAGUCUUCGCCACCCGGGAGCUGCAGGUCCCCUCCGAGCAGGUGGCGUUUACCGUCACUGCAUGGGACAGC: 0.176 ratio
AUGGAACAUUUCGAUGCGUCACUCAGUACCUAUUUCAAGGCCUUCCUGGGCCCCCGAGAUACAAGAGUAAAAGGAUGGUUCCUCCUGGACAAUUAUAUCCCUACGUUUGUCUGUUCUGUU: 0.103 ratio
GCUCUUGGGAAUGUAAUCAGCGCCUUGGGGGACAAGAGCAAGAGAGCCACCCAUGUCCCUUACAGAGACUCUAAGCUGACAAGACUCCUACAGGAUUCCCUUGGGGGUAAUAGCCAAACC: 0.22 ratio
UUACCCGAGAACGAGGAUGAGCUGGAGAGCACCAACAGACGCUAUACCAAGAGGGACUGCAGCACUUUCCUCAGAACUAGUGAGACGGGCAUCGUGGACCAGGUCAUGGUAACUCUCAAC: 0.203 ratio
UGUAGUUUCUUGAUUUAUCAUUUUUCUCUUUUCUUUCUUUCCUUUAGGAAAAGCCUAAAGAUUAGACUGUAAGAAAAACAGAAGCCAUGUUUCGAAGGAAGACCUGUCAGGUAUUUCGUC: 0.108 ratio

Block 2 — method: protein binding microarray; form: double-stranded DNA, one strand shown; matrix: in vitro; concentration: not given; relative to: not given; reading: higher = stronger binding; measurement: E-score
Target: Histone acetyltransferase KAT6A, winged helix 1, GST fusion (KAT6A, Homo sapiens, UniProt Q92794, residues 1-85)
Notes: 8-mer, flanks averaged, mean of 2 arrays, mostly near background
Target sequence (chain): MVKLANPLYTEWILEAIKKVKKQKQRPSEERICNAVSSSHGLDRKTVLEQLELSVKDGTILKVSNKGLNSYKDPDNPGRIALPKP
CGGTTGCA: 0.0155
GGACGGAC: 0.24
GGCGTCCA: 0.0942
CCTAGCCC: -0.0813
AAAGGGGA: -0.00503
GTGTTGCA: -0.0182
CTGCTGCA: -0.109
CAACTGCA: -0.313
CTTCGGCC: 0.074
ACTGTTTC: 0.105
GTGCATCA: 0.00532
GAGCTGGC: -0.239
ACGACCGG: 0.124
TCATGTCA: -0.165
TCGATAAA: 0.172
GACCCGGA: 0.221
GAAAAACA: -0.188
AACTGCAG: -0.194
CCTCAATA: 0.00892
AGGAAGAC: -0.313
TAAACAAA: -0.125
ATAAGCGA: 0.13
TACAATCA: -0.0388
CCCTCGAA: -0.0842
CCGGCGTA: 0.381

Block 3 — method: universal PBM; form: double-stranded DNA, one strand shown; matrix: in vitro; concentration: not given; reading: higher = stronger binding; measurement: E-score
Target: Sal-like protein 4, full length isoform B (SALL4, Homo sapiens, UniProt Q9UJQ4-2, residues 1-616)
Notes: 8-mer, flanks averaged, mean of replicates
CGTGTAGA: 0.092
AAGATGAC: 0.147
ACTCCCCG: -0.236
CTGAGGTC: -0.23
CGGATGTC: -0.193
AATTGTTG: 0.208
CGCTACCC: -0.247
AACTGGCT: -0.0307
GAAAGTGA: 0.0925
CGTCGAGA: -0.102
AACAGGAA: 0.187
CGTGAGCA: -0.242
ATTCATGG: 0.122
AACGCGAT: -0.132
GAAAAAAA: 0.316
AGAGGCCC: -0.291
CTCTGGAC: -0.116

Block 4 — method: competition protein-binding microarray; form: double-stranded DNA, one strand shown; matrix: in vitro; concentration: 2 µM; added: Pho4 competitor, 0.05 µM; reading: higher = stronger binding; measurement: fluorescence intensity; constant ends, left off below: … GTCTTGATTCGCTTGACGCTGCTG
Target: Centromere-binding protein 1, full length, His-tagged (CBF1, Saccharomyces cerevisiae, UniProt P17106, residues 1-351)
Chain of UniProt P17106 (whole entry, looked up): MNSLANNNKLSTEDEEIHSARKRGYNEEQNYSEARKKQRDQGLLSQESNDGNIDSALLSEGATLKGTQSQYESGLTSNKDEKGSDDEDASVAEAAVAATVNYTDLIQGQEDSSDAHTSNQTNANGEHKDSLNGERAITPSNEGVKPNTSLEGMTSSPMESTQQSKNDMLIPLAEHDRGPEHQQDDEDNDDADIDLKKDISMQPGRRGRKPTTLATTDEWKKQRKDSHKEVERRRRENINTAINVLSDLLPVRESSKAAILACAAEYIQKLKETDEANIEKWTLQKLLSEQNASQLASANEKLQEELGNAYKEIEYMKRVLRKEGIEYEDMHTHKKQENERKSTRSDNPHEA
Notes: whole 60-bp probe, lowest competitor level
TCCCTGTGGATCCATCACGTGTGGATTAGGAGCAAA: 2310 a.u.
CGGACGCTCAAACGATCCGTGACTCGGCGCCACAGG: 77 a.u.
AGGCAGACAAGCTGTCATGTGTTCTGATTATGCCAT: 404 a.u.
CAATAATATCATAATCATATGACGGTTCTTCGTCAA: 224 a.u.
CTTCTGTAAATTTTTCACGTGGTGTGAAGCGCCCCG: 982 a.u.
AAATTACTAAGTTTTCACGTGGTTTACCCCGTATGA: 1270 a.u.
AATTGTGCCAAAAATCACCTGTTATGGCTGACTTGA: 133 a.u.
TAAGTTCCTTCCCAACACGTGGATTAGAATAGGTAG: 1100 a.u.
TCGGACTAGACGCTGGGCGTGCATCGCCAGTGAAAA: 50.1 a.u.
CTTTCCCGATCTTGGAGAGTGGGTGTAGCACATTTG: 63.3 a.u.
TATATCAGATAAGGACACGTGCCGATTCATTGGAAA: 2270 a.u.
GCGTTGCAGATCGCTCAGCTGACTTTGAAGCATCGC: 172 a.u.
CGGGGTTAAGTTTGGGTAGTGGGTGGCTTGCAGCAG: 58.1 a.u.
CTTTCCCGATCTTTTCACGTGGAGTTAGCACATTTG: 486 a.u.
TGCGCAACAACTTGCCTTGTGGGTGTATGTCTAGAA: 57 a.u.
TTTTCGATTTTCTGGCACGATGCTGACTTAGTACTA: 85.5 a.u.
GATGTTGTCTGCTTTGTCGTGCTAACCAAACAGCAA: 80 a.u.
AACTGCAGGGTCTGGCACGGCAACACAAGGCTATTG: 56.6 a.u.
AAGTGTATGGGTCCACGCGTGTTTTGTGCAGTGTAT: 81.5 a.u.
GATACACTTCCAGGGAACGTGATGGAAATGATCTTC: 265 a.u.
AAATTACTAAGTTGTTTGGTGGGTGACGCCGTATGA: 64.8 a.u.
GAAAGGAAATGCTGTCATGTGAGTTAGGTGTAGAGC: 473 a.u.
CTAACGAAGGTTTGTCACAGCACTTACAAGCCAAGT: 59.6 a.u.
CGTCCTAGTGATTGTCACATGACTTCCATGAGGAAG: 3590 a.u.

Block 5 — method: RNA Bind-n-Seq; form: RNA; matrix: in vitro; concentration: 365 nM; relative to: no-protein control; reading: higher = stronger binding; measurement: RBNS enrichment (R)
Target: RNA binding protein fox-1 homolog 2, RRM domain, GST-SBP tag (RBFOX2, Homo sapiens, UniProt O43251-10, residues 100-194)
Notes: natural RNA segment, single round, ends assumed
Constant ends, left off below: GGGAGUUCUACAGUCCGACGAUC … UGGAAUUCUCGGGUGCCAA
Construct (chain): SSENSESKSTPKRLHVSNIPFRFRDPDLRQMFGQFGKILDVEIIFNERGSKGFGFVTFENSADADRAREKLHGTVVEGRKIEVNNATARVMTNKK
UACGUCUUUGGAGGAACAGCUCCCUAGUGGCUUCCUCCGUCUGCAAUGUCCCUUGCACAGCCCACACAUGAACCAUCCUUCCCAUGAUGCCGCUCUUCUGUCAUCCCGCU: 0.565
CUGAGCUCAGAUCCAGCUUGCAACUAAUCCUUCUAUCAUCUAACAUGCCCUACUUGGAAAGAUCUAAGAUCUGAAUCUUAUCCUUUGCCAUCUUCUGUUACCAUAUGGUG: 0.573
GACCAGCUGUCCAGGGGCUGCCUCCUGCCUUUUCUUUUGUAAAGACAAGACCCUUGGGAGUUUUAAUUCUGUUUUGUACUUGCCCUGUGGGGCCUCCACUGCUUUUCUAU: 0.459
GUGUAGUGAAUUAUAACAACCUGAAGAUUGCUUUCUGAAACUGUUUUUAAGUUAAGGGAAAAAGUAUAUUUUUGUUAAAACUUUCAUGAAAAAAUAAAAUAUAUCCUUGU: 0.75
UUGUCAUAAGUUAUGUUUCAGAUUUUUGAAUUUAUUUAUAUGUGUUAUAAUGAAUGCUUCUAUUUAAAAGGGAAAUAUUUCUACAUGUGCAUAUAGUUUUCCAAGAGUGU: 0.634
ACCAGAGCCUCCCCGCUGCUCCUCCUGCUUCACGGACUCAUUCUCUCUCCACCUCCACCCCACCAGAGAGUAGCGAUUGCUUUUUAGUCUAUUUUGUUGUCAAUACAAUU: 0.594
UGAGUGCCAGAAGCUGCCUCCGUGGUUUGGUCACCGUGUGCAUCGCACCGUGCUGUAAAUGUGGCAGACGCAGCCUGCGGCCAGGCUUUUUAUUUAAUGUAAAUAGUUUU: 0.518
AGGGAGGACCUGUUGUGUUCCAGCCAUUCUGGUAUUCCUUUAUGUAUCUAAUUUCAUUCAAACCUCACAACAGUCUUGUGAGGCCCUUAUAUAAUUACUCCCAUUUUGCA: 1.53
GUACUGGUCCAAUUUAUUUAGGAAGUAUCUCUUGGAGUUUCAGAAAUGCUAGCUUGGACAACUGAAAAGUCACAUCACAGCUGGCAUUCUGGGGGCUACCAAAACACCCC: 0.215
CAACUUCUGCGGAAGGACACAGUAGUAACUCGCCUUCCUUGUGCAGAGCUAGGGCCCUACCUGAGCAAGUCGGCUGUGGCCCGGGAGGCAGCGUGACUCCUGCUGUCCUC: 0.502
CGCUGUGCUCCAGGGAGAGGAGCCAAGAAGCAAGCGGGCUGCUGGGAGUCCCUGCACUGCCAUCUGGCCGGGACGGAGGCGCCUGCCCGGUCUCCAGGCUCCUCUGAGCU: 1.04
AUUAUAUAUUUUCCUUCCUGAUUGAAUCAUCAUCACUCCCUGUAACUAGCGAAAACCACCAGUCCAGACCUUAUCCAUUCUACUCAUUCACAGUUUUAAAAACUGCCAUG: 0.711

A few entries again (block 2):
AGGAAGAC: -0.313
ACGACCGG: 0.124
CAACTGCA: -0.313
CTTCGGCC: 0.074
CTGCTGCA: -0.109
TCGATAAA: 0.172
GGACGGAC: 0.24
CCGGCGTA: 0.381
TAAACAAA: -0.125
CCCTCGAA: -0.0842
GTGTTGCA: -0.0182
AAAGGGGA: -0.00503
TACAATCA: -0.0388
ACTGTTTC: 0.105
GTGCATCA: 0.00532
